Published values gathered from unrelated publications.
Lines come from different studies, so protocols differ.
Organism: Candida albicans

SMILES | test | test system | conditions | scale | MIC
CC[C@H](C)[C@H](NC(=O)[C@H](CC(C)C)NC(=O)CCNC(=O)[C@H](CO)NC(=O)[C@H](CCCNC(=N)N)NC(=O)[C@@H](N)CO)C(=O)N[C@H](C(=O)N[C@@H](Cc1c[nH]cn1)C(=O)N[C@@H](CCC(N)=O)C(=O)N[C@@H](CCCNC(=N)N)C(=O)N[C@@H](CC(C)C)C(=O)N[C@@H](Cc1ccccc1)C(N)=O)C(C)C | broth microdilution | RPMI MOPS-buffered |  |  | > 400 µg/mL
CC[C@H](C)[C@H](NC(=O)[C@H](C)NC(=O)[C@@H]1CCCN1C(=O)[C@H](CC(C)C)NC(=O)[C@H](Cc1ccccc1)NC(=O)[C@H](CCCCN)NC(=O)[C@H](CCSC)NC(=O)[C@H](C)NC(=O)[C@H](CCSC)NC(=O)[C@H](CCCCN)NC(=O)[C@H](C)NC(=O)[C@@H](NC(=O)[C@@H](NC(=O)CNC(=O)[C@H](Cc1ccccc1)NC(=O)[C@@H](N)Cc1ccccc1)C(C)C)[C@@H](C)CC)C(=O)N[C@@H](Cc1ccccc1)C(=O)N[C@@H](CCCCN)C(=O)N[C@@H](CCC(N)=O)C(=O)N[C@H](C(=O)N[C@@H](CCC(N)=O)C(=O)N[C@@H](CCCCN)C(=O)N[C@@H](CCCCN)C(=O)N[C@@H](CCCNC(=N)N)C(=O)N[C@@H](CCCCN)C(N)=O)[C@@H](C)CC | ATP luminescence | FH2173 | 48 h |  | 12.5 µM
CC(C)[C@@H](CC(=O)N[C@@H](CCCCN)CC(=O)N[C@H](CC(=O)N[C@H](CC(=O)N[C@@H](CCCCN)CC(=O)N[C@H](CC(=O)N[C@H](CC(=O)N[C@@H](CCCCN)CC(N)=O)C(C)C)C(C)C)C(C)C)C(C)C)NC(=O)C[C@@H](NC(=O)C[C@@H](N)Cc1ccc(O)cc1)C(C)C | broth microdilution | SC5314 | 48 h, pH 7.2, 35 °C |  | 32 µg/mL
CC[C@H](C)[C@@H]1NC(=O)[C@H](CC(C)C)NC(=O)[C@@H](NC(=O)[C@H](CO)NC(=O)[C@H](CCCNC(=N)N)NC(=O)[C@@H](N)CO)CCSSCC[C@@H](C(=O)N[C@@H](CCC(N)=O)C(=O)N[C@@H](CCCNC(=N)N)C(=O)N[C@@H](CC(C)C)C(=O)N[C@@H](Cc2ccccc2)C(N)=O)NC(=O)[C@H](C(C)C)NC1=O | broth microdilution | ATCC 24433 |  |  | 10 µg/mL
CC(C)C[C@H](NC(=O)CN)C(=O)N[C@@H](CC(C)C)C(=O)N[C@@H](CCCCN)C(=O)N[C@@H](CC(C)C)C(=O)N[C@@H](CC(C)C)C(=O)N[C@@H](CCCCN)C(=O)N[C@@H](CCCCN)C(=O)N[C@@H](CC(C)C)C(=O)N[C@@H](CC(C)C)C(=O)N[C@@H](CCCCN)C(=O)N[C@@H](CC(C)C)C(=O)N[C@@H](CC(C)C)C(=O)N[C@@H](CCCCN)C(N)=O | broth microdilution OD530 | ATCC 90028, yeast nitrogen base | 24 h, 35 °C |  | 12 µM
CCCCCCCCCCCCCCC(=O)O.O=C1CCCC2C3CCCN4CCCC(CN12)C34 (stereo not drawn) | broth dilution | ATCC 10231 |  |  | inactive
CC(C)(C)c1ccc(COc2cc3c(=O)c(C(=O)NCCNCCO)cn(Cc4ccccc4)c3cc2Cl)cc1 |  | ATCC 90028 |  | ≥80% growth inhibition | > 32 µg/mL
CC[C@H](C)[C@@H]1NC(=O)CNC(=O)[C@H](CCCCN)NC(=O)[C@H](C)NC(=O)[C@H](CCC(=O)O)NC(=O)[C@H](Cc2ccccc2)NC(=O)[C@H](CO)NC(=O)[C@H](CC(C)C)NC(=O)[C@H](C(C)C)NC(=O)[C@H](CC(=O)O)NC(=O)[C@@H](NC(=O)[C@@H](NC(=O)[C@@H](N)C(C)C)[C@@H](C)O)CSSC[C@@H]2NC(=O)[C@H](CO)NC(=O)CNC(=O)CNC(=O)[C@H](CCCCN)NC(=O)[C@H](CCCCN)NC(=O)[C@H](CCCNC(=N)N)NC(=O)[C@H](CC(C)C)NC(=O)[C@H](C)NC(=O)[C@H]([C@@H](C)CC)NC(=O)[C@H](C)NC(=O)[C@H](Cc3c[nH]cn3)NC(=O)[C@H](CC(C)C)NC(=O)[C@H](C)NC(=O)[C@H](CSSC[C@@H](C(=O)N[C@H](C(=O)N[C@@H](C)C(=O)N[C@@H](CCCNC(=N)N)C(=O)N[C@@H](CC(N)=O)C(=O)O)C(C)C)NC(=O)[C@H](C(C)C)NC(=O)CNC(=O)[C@H](CC(N)=O)NC(=O)[C@H](CCC(N)=O)NC2=O)NC(=O)[C@H](C)NC(=O)[C@H](CO)NC(=O)[C@H](Cc2c[nH]cn2)NC(=O)[C@H](CC(N)=O)NC(=O)[C@H](C(C)C)NC(=O)[C@H](C)NC1=O | broth microdilution | ATCC 90028 | 28 °C |  | 12.5 µM
COc1cc2c(=O)c(C(=O)NCCNCCO)cn(Cc3ccccc3)c2cc1OCc1cccc(Br)c1 |  | ATCC 90028 |  | ≥80% growth inhibition | < 0.25 µg/mL
CC[C@@H](CC(=O)N[C@@H](CCCNC(=N)N)CC(=O)N[C@H](CC(=O)N[C@@H](CC)CC(=O)N[C@@H](CCCNC(=N)N)CC(=O)N[C@H](CC(=O)N[C@@H](CC)CC(=O)N[C@@H](CCCNC(=N)N)CC(N)=O)[C@@H](C)CC)[C@@H](C)CC)NC(=O)C[C@@H](N)[C@@H](C)CC | broth microdilution | SC5314 | 48 h, pH 7.2, 35 °C |  | 128 µg/mL
CC[C@H](C)[C@H](NC(=O)[C@H](C)NC(=O)[C@H](C)NC(=O)[C@H](Cc1ccccc1)NC(=O)[C@H](C)NC(=O)CNC(=O)[C@H](Cc1ccccc1)NC(=O)[C@@H](N)Cc1ccccc1)C(=O)N[C@@H](C)C(=O)N[C@@H](CO)C(=O)N[C@@H](CC(C)C)C(=O)N[C@H](C(=O)N[C@H](C(=O)N1CCC[C@H]1C(=O)N[C@@H](CCCCN)C(=O)N[C@@H](CC(C)C)C(=O)N[C@H](C(=O)N[C@@H](CCC(=O)O)C(=O)N[C@@H](CCCCN)C(=O)N[C@H](C(=O)N[C@@H](CCCCN)C(=O)N[C@@H](CCC(N)=O)C(=O)N[C@@H](C)C(=O)N[C@@H](CCCNC(=N)N)C(N)=O)[C@@H](C)CC)[C@@H](C)CC)[C@@H](C)CC)C(C)C | ATP luminescence | FH2173 | 48 h |  | > 50 µM
CC[C@H](C)[C@@H]1NC(=O)[C@H](CC(C)C)NC(=O)[C@@H](NC(=O)[C@H](CO)NC(=O)[C@H](CCCNC(=N)N)NC(=O)[C@@H](N)CO)CSSC[C@H](NC(=O)[C@H](CO)NC(=O)[C@H](CCCNC(=N)N)NC(=O)[C@@H](N)CO)C(=O)N[C@@H](CC(C)C)C(=O)N[C@@H]([C@@H](C)CC)C(=O)N[C@@H](C(C)C)C(=O)N[C@H](C(=O)N[C@@H](CCC(N)=O)C(=O)N[C@@H](CCCNC(=N)N)C(=O)N[C@@H](CC(C)C)C(=O)N[C@@H](Cc2ccccc2)C(N)=O)CSSC[C@@H](C(=O)N[C@@H](CCC(N)=O)C(=O)N[C@@H](CCCNC(=N)N)C(=O)N[C@@H](CC(C)C)C(=O)N[C@@H](Cc2ccccc2)C(N)=O)NC(=O)[C@H](C(C)C)NC1=O | broth microdilution | ATCC 24433 |  |  | 48 µg/mL
CC1C(=NOCc2cn(-c3ccccc3)nn2)C(C)C(c2ccc(Br)cc2)OC1c1ccc(Br)cc1 (stereo not drawn) | microbial growth |  |  |  | 25 µg/mL
CC[C@H](C)[C@@H]1NC(=O)[C@H](CC(C)C)NC(=O)[C@@H](NC(=O)[C@H](CO)NC(=O)[C@H](CCCNC(=N)N)NC(=O)[C@@H](N)CO)CSSC[C@@H](C(=O)N[C@@H](CCC(N)=O)C(=O)N[C@@H](CCCNC(=N)N)C(=O)N[C@@H](CC(C)C)C(=O)N[C@@H](Cc2ccccc2)C(N)=O)NC(=O)[C@H](C(C)C)NC(=O)[C@H]([C@@H](C)CC)NC(=O)[C@H](CC(C)C)NC(=O)[C@@H](NC(=O)[C@H](CO)NC(=O)[C@H](CCCNC(=N)N)NC(=O)[C@@H](N)CO)CSSC[C@@H](C(=O)N[C@@H](CCC(N)=O)C(=O)N[C@@H](CCCNC(=N)N)C(=O)N[C@@H](CC(C)C)C(=O)N[C@@H](Cc2ccccc2)C(N)=O)NC(=O)[C@H](C(C)C)NC1=O | broth microdilution | ATCC 24433 |  |  | 29 µg/mL
[Ag+].[S-]c1ccccn1.c1ccc(P(c2ccccc2)c2ccccc2)cc1.c1ccc(P(c2ccccc2)c2ccccc2)cc1 | agar dilution | MTCC 227, Mueller Hinton agar | 24 h, 25 °C |  | 50 µg/mL

Excerpt of the above:
SMILES | test | test system | conditions | scale | MIC
CC[C@H](C)[C@@H]1NC(=O)CNC(=O)[C@H](CCCCN)NC(=O)[C@H](C)NC(=O)[C@H](CCC(=O)O)NC(=O)[C@H](Cc2ccccc2)NC(=O)[C@H](CO)NC(=O)[C@H](CC(C)C)NC(=O)[C@H](C(C)C)NC(=O)[C@H](CC(=O)O)NC(=O)[C@@H](NC(=O)[C@@H](NC(=O)[C@@H](N)C(C)C)[C@@H](C)O)CSSC[C@@H]2NC(=O)[C@H](CO)NC(=O)CNC(=O)CNC(=O)[C@H](CCCCN)NC(=O)[C@H](CCCCN)NC(=O)[C@H](CCCNC(=N)N)NC(=O)[C@H](CC(C)C)NC(=O)[C@H](C)NC(=O)[C@H]([C@@H](C)CC)NC(=O)[C@H](C)NC(=O)[C@H](Cc3c[nH]cn3)NC(=O)[C@H](CC(C)C)NC(=O)[C@H](C)NC(=O)[C@H](CSSC[C@@H](C(=O)N[C@H](C(=O)N[C@@H](C)C(=O)N[C@@H](CCCNC(=N)N)C(=O)N[C@@H](CC(N)=O)C(=O)O)C(C)C)NC(=O)[C@H](C(C)C)NC(=O)CNC(=O)[C@H](CC(N)=O)NC(=O)[C@H](CCC(N)=O)NC2=O)NC(=O)[C@H](C)NC(=O)[C@H](CO)NC(=O)[C@H](Cc2c[nH]cn2)NC(=O)[C@H](CC(N)=O)NC(=O)[C@H](C(C)C)NC(=O)[C@H](C)NC1=O | broth microdilution | ATCC 90028 | 28 °C |  | 12.5 µM
CC[C@H](C)[C@@H]1NC(=O)[C@H](CC(C)C)NC(=O)[C@@H](NC(=O)[C@H](CO)NC(=O)[C@H](CCCNC(=N)N)NC(=O)[C@@H](N)CO)CSSC[C@H](NC(=O)[C@H](CO)NC(=O)[C@H](CCCNC(=N)N)NC(=O)[C@@H](N)CO)C(=O)N[C@@H](CC(C)C)C(=O)N[C@@H]([C@@H](C)CC)C(=O)N[C@@H](C(C)C)C(=O)N[C@H](C(=O)N[C@@H](CCC(N)=O)C(=O)N[C@@H](CCCNC(=N)N)C(=O)N[C@@H](CC(C)C)C(=O)N[C@@H](Cc2ccccc2)C(N)=O)CSSC[C@@H](C(=O)N[C@@H](CCC(N)=O)C(=O)N[C@@H](CCCNC(=N)N)C(=O)N[C@@H](CC(C)C)C(=O)N[C@@H](Cc2ccccc2)C(N)=O)NC(=O)[C@H](C(C)C)NC1=O | broth microdilution | ATCC 24433 |  |  | 48 µg/mL
